Assay results collected from several papers.
Protocols differ between the studies behind these lines. Several values in a cell are separate wells, animals, samples, runs or records. ± marks the error that the study gave.
CDC48A: CDC48A 1-463 (Arabidopsis thaliana, UniProt P54609)
Sequence of UniProt P54609 (whole entry, looked up): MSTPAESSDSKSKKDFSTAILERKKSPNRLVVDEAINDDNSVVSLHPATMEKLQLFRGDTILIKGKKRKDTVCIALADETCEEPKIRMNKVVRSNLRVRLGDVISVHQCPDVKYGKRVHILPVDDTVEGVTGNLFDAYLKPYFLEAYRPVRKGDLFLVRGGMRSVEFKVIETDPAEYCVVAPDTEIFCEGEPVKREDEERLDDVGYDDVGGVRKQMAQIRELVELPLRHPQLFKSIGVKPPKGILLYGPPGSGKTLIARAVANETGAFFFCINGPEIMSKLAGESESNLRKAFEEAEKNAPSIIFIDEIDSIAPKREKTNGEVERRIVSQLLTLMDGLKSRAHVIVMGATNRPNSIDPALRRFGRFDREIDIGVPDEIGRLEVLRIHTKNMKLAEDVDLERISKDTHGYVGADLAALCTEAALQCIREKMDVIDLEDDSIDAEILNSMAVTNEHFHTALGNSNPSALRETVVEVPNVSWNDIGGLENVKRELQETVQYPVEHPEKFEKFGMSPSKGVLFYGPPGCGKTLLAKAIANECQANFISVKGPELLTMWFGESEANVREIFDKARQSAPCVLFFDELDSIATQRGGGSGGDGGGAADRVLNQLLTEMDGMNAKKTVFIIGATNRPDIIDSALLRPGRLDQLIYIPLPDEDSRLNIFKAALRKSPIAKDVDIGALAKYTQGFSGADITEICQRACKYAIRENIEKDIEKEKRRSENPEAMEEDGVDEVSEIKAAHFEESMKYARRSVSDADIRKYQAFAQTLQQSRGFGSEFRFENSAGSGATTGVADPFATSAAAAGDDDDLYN
Tln1: Tln1 309-405 (Mus musculus, UniProt P26039)
Sequence of UniProt P26039 (whole entry, looked up): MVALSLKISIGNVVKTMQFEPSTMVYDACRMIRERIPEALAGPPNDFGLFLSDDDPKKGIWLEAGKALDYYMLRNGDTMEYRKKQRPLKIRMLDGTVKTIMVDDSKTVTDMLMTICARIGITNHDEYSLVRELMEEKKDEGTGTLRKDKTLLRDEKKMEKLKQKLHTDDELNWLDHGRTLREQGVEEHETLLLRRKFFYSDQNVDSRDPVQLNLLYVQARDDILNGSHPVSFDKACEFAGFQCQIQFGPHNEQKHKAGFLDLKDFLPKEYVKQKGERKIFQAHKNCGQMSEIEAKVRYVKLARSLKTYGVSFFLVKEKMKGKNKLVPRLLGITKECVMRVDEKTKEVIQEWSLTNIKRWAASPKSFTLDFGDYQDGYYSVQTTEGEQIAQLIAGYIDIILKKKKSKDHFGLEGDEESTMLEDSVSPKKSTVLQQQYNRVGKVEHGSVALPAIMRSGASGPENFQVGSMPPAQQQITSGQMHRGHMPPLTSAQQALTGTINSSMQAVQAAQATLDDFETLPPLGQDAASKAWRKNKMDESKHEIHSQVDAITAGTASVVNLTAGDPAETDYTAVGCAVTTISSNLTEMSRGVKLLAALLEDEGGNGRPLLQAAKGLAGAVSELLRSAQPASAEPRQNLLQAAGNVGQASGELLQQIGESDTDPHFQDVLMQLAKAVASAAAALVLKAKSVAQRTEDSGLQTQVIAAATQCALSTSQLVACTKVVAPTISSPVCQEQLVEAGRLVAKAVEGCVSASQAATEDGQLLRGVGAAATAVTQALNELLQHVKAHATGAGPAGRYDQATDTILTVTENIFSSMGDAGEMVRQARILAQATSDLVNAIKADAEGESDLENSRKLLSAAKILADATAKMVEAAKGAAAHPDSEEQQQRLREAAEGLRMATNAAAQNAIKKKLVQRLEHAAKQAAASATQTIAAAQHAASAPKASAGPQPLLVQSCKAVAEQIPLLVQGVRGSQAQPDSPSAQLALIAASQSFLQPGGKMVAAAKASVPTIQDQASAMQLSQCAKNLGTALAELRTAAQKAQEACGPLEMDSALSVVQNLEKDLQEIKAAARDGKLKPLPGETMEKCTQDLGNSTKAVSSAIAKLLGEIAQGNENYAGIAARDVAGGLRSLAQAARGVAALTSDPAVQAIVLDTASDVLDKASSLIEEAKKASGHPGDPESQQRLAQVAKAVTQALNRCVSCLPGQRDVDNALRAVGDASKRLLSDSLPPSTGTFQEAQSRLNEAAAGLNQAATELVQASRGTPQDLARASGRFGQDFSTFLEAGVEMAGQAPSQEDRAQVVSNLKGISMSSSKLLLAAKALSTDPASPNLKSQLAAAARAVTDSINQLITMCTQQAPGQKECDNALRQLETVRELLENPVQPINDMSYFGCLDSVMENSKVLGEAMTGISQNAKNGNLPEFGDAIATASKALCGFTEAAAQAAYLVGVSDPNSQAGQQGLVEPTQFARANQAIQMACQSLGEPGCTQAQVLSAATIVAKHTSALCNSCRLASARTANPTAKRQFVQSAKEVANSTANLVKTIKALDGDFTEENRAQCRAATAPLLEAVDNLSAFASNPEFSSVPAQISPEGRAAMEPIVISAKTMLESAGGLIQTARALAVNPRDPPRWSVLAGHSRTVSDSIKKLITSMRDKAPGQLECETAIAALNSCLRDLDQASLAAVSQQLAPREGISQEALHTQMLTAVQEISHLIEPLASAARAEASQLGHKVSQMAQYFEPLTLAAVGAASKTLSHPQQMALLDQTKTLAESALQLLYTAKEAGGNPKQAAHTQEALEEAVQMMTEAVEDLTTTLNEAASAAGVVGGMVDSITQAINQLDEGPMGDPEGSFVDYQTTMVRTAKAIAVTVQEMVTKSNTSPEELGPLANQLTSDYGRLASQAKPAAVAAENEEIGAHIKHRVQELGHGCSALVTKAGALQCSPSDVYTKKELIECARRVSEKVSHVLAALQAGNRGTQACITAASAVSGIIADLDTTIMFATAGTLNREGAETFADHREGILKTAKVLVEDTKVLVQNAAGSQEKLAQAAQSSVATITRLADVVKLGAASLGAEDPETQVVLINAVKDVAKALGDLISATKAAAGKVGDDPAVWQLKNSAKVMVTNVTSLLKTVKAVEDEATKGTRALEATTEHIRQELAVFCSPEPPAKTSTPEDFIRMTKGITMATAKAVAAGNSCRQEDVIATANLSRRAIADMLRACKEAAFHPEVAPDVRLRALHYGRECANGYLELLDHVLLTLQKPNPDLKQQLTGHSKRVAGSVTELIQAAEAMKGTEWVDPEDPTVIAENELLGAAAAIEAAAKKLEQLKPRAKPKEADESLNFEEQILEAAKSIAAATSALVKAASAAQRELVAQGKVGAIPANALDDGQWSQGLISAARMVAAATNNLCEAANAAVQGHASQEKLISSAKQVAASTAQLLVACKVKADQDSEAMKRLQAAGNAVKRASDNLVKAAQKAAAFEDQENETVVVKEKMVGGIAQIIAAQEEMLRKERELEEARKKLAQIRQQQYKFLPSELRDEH
CALM1: CALM1 (Homo sapiens, UniProt P0DP23)
T1: ATRX ADD domain 167-289 K251R/F284Y (Homo sapiens); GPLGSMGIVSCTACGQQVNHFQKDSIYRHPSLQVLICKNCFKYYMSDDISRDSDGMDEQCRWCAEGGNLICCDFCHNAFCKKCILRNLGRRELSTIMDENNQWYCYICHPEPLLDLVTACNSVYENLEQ
B1: acpP (Escherichia coli, UniProt P0A6A8); 4-DMN-phosphopantetheine; sequence looked up; chain MSTIEERVKKIIGEQLGVKQEEVTNNASFVEDLGADSLDTVELVMALEEEFDTEIPDEEAEKITTVQAAIDYINGHQA
B2: PUX7 322-468 (Arabidopsis thaliana, UniProt Q94JZ8); chain EDVAKDEEEEELQRALAASLEDNNMKESSDDQSTIIPEEVAVEAVTSAVLPTFPPLPEEPKGGDRSLQCRVGIRLPNGQRLQRNFLKTDTIQLLWSFCYSQLEESERKKPLKLTQAIPGESKTLEYESNLTLEQSGVANSMISATWE
B3: CFH domains 1108-1231 L1189F (Homo sapiens, UniProt P08603); sequence looked up; chain KCGPPPPIDNGDITSFPLSVYAPASSVEYQCQNLYQLEGNKRITCRNGQWSEPPKCLHPCVISREIMENYNIALRWTAKQKFYSRTGESVEFVCKRGYRLSSRSHTLRTTCWDGKLEYPTCAKR
B4: protein (Pseudomonas aeruginosa, UniProt A0A0H2ZK79); sequence looked up; chain MTSIDISNTRQLLERASNDDLEPLVEYILKANTESLSKQVDFKRSHPEHRRYASSILDELRLFGGNSFVNLWRKSGPSYTEVVRDVASKLKVKGAGSMELIELEEAMVQSILRQALEKSSGEDRRELEVILREAGLDKTKMTALLNGSALSGLVVPTVARLILYRTSTVIVNSMAQQLLGHGLRSAVVAGGTFAGGRAVAALAGPVGWVIAGIWTAVDLAGPAYRVTIPCVLQIAMLRLKARAEAATDFMNGAFDG
B5: DNAJB11 23-358 (Homo sapiens, UniProt Q9UBS4); chain GRDFYKILGVPRSASIKDIKKAYRKLALQLHPDRNPDDPQAQEKFQDLGAAYEVLSDSEKRKQYDTYGEEGLKDGHQSSHGDIFSHFFGDFGFMFGGTPRQQDRNIPRGSDIIVDLEVTLEEVYAGNFVEVVRNKPVARQAPGKRKCNCRQEMRTTQLGPGRFQMTQEVVCDECPNVKLVNEERTLEVEIEPGVRDGMEYPFIGEGEPHVDGEPGDLRFRIKVVKHPIFERRGDDLYTNVTISLVESLVGFEMDITHLDGHKVHISRDKITRPGAKLWKKGEGLPNFDNNNIKGSLIITFDVDFPKEQLTEEAREGIKQLLKQGSVQKVYNGLQGY
B6: EFR3A 721-791 (Homo sapiens, UniProt Q14156); chain SNTEEITFEALKKAIDTSGMEEQEKEKRRLVIEKFQKAPFEEIAAQCESKANLLHDRLAQILELTIRPPPS
B7: Cacna1c 1647-1777 (Mus musculus, UniProt Q01815); sequence looked up; chain NALSLQAGLRTLHDIGPEIRRAISGDLTAEEELDKAMKEAVSAASEDDIFRRAGGLFGNHVTYYQSDSRGNFPQTFATQRPLHINKTGNNQADTESPSHEKLVDSTFTPSSYSSTGSNANINNANNTALGR
B8: mglB (Myxococcus xanthus, UniProt Q1DB03); sequence looked up; chain MGTQLVMYEEEFTKINAVCDRLTKDANAKVVFLVDKNGQLISSAGQTQNIDTTSLASLTAGNVAAMGGLAKLIGENEFPNQFHEGAKDSLYMTIVGSRVVLVVIFDNRTSLGLVRLRIKKASDELTKIFESLVKKTDSPGAGSPFAEISDDDIDNLFSE
B9: DTNB 422-535 (Homo sapiens, UniProt O60941-1); sequence looked up; chain PPTDLSFNFDANKQQRQLIAELENKNREILQEIQRLRLEHEQASQPTPEKAQQNPTLLAELRLLRQRKDELEQRMSALQESRRELMVQLEELMKLLKEEEQKQAAQATGSPHTS
B10: MDM4 23-210 (Homo sapiens, UniProt O15151); chain GPLGSQINQVRPKLPLLKILHAAGAQGEMFTVKEVMHYLGQYIMVKQLYDQQEQHMVYCGGDLLGELLGRQSFSVKDPSPLYDMLRKNLVTLATATTDAAQTLALAQDHSMDIPSQDQLKQSAEESSTSRKRTTEDDIPTLPTSEHKCIHSREDEDLIENLAQDETSRLDLGFEEWDVAGLPWWFLGNLRSNY
B11: JAZ10 (Arabidopsis thaliana, UniProt Q93ZM9); sequence looked up; chain MSKATIELDFLGLEKKQTNNAPKPKFQKFLDRRRSFRDIQGAISKIDPEIIKSLLASTGNNSDSSAKSRSVPSTPREDQPQIPISPVHASLARSSTELVSGTVPMTIFYNGSVSVFQVSRNKAGEIMKVANEAASKKDESSMETDLSVILPTTLRPKLFGQNLEGDLPIARRKSLQRFLEKRKERLVSTSPYYPTSA
B12: CFH domains 1108-1231 S1191L (Homo sapiens, UniProt P08603); sequence looked up; chain KCGPPPPIDNGDITSFPLSVYAPASSVEYQCQNLYQLEGNKRITCRNGQWSEPPKCLHPCVISREIMENYNIALRWTAKQKLYLRTGESVEFVCKRGYRLSSRSHTLRTTCWDGKLEYPTCAKR
B13: SMARCD1 SWIFT domain (Homo sapiens); chain IKQKRKLRIFISNTFNPAKSDAEDGEGTVASWELRVEGRLLEDSALSKYDATKQKRKFSSFFKSLVIELDKDLYGPDNHLVEWHRTATTQETDGFQVKRPGDVNVRCTVLLMLDYQPPQFMPPEPIIINHVISVDPNDQKKTACYDIDVEVDDTL
B14: BRAF kinase 448-723 K723G/P722S/S720E/L716E/S713E/Q709R/L706S/A688R/Y673S/I666R/K630S/V600E/L588N/Q562R (Homo sapiens, UniProt P15056); sequence looked up; chain DDWEIPDGQITVGQRIGSGSFGTVYKGKWHGDVAVKMLNVTAPTPQQLQAFKNEVGVLRKTRHVNILLFMGYSTKPQLAIVTQWCEGSSLYHHLHASETKFEMKKLIDIARQTARGMDYLHAKSIIHRDLKSNNIFLHEDNTVKIGDFGLATEKSRWSGSHQFEQLSGSILWMAPEVIRMQDSNPYSFQSDVYAFGIVLYELMTGQLPYSNINNRDQIRFMVGRGSLSPDLSKVRSNCPKRMKRLMAECLKKKRDERPSFPRILAEIEELARELSG
B15: PUX5 301-421 F395A (Arabidopsis thaliana, UniProt Q7Y175); chain KNPFQGVGRTLGASGSGSSSAPQASSAPMNVAPAPSRGLVVDPAAPTTSIQLRLADGTRLVSRFNNHHTVRDVRGFIDASRPGGSKEYQLLTMGAPPKQLTELDQTIEQAGIANAVVIQKF
Sequence of UniProt Q9H160 (whole entry, looked up): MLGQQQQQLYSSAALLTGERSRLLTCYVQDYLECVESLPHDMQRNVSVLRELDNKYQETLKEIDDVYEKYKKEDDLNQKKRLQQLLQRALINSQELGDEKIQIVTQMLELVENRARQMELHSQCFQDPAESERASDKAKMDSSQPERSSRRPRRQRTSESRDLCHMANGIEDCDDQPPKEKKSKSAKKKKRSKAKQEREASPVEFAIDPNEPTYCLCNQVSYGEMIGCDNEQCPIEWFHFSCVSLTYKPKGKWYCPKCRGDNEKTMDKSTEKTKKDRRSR
Sequence of UniProt O08808 (whole entry, looked up): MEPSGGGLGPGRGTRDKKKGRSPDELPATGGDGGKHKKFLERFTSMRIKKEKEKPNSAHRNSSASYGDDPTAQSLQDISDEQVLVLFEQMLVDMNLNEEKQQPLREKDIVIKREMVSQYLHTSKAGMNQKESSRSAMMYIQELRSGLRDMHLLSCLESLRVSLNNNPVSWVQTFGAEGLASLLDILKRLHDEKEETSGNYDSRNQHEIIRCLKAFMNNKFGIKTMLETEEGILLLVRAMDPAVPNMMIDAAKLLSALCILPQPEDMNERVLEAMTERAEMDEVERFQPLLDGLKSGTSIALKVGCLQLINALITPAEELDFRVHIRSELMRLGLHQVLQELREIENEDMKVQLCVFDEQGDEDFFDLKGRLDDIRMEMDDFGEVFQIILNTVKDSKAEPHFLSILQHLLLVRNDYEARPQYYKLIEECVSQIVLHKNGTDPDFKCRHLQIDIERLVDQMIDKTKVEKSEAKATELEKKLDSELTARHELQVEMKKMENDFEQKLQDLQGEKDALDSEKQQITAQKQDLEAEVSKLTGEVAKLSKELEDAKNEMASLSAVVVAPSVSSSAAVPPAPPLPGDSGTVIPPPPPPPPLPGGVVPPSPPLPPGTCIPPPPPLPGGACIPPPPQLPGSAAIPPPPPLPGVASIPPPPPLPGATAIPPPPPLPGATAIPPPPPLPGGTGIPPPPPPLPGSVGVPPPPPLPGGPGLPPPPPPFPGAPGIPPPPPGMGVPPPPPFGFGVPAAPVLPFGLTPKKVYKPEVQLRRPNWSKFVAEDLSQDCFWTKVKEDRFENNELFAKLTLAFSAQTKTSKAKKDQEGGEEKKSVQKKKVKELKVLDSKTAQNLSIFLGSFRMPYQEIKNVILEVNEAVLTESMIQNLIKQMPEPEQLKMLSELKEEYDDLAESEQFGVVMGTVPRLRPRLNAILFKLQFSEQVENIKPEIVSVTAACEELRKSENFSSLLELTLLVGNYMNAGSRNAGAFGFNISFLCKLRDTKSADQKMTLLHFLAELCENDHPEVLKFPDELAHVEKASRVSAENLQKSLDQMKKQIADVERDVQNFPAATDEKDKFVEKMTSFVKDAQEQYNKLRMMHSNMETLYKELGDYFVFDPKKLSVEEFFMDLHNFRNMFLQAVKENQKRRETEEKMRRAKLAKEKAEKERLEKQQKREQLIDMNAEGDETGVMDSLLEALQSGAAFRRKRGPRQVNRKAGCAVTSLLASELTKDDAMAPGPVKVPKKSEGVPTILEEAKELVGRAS
Sequence of UniProt Q1DB04 (whole entry, looked up): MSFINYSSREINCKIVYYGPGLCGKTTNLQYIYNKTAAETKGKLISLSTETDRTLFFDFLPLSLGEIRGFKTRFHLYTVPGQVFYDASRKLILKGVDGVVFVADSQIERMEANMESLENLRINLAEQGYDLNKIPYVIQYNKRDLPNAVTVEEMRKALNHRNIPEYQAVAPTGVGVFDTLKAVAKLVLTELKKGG

B1 (acpP)  Kd (BioH, His tag omitted (UniProt P13001); fluorescence titration): 1.13 µM
B2 (PUX7 322-468)  Kd (CDC48A; ITC; 10 °C): 2.6 ± 0.3 µM
GCVRLHESCLGQQVPCCDPAATCYCEGRGDRDMKCYCR (designed binder)  Kd (ITGAV/ITGB3 U87MG cells (Homo sapiens); flow cytometry; designed binder, U87MG): 0.0083 µM
ARTKQTARKS (histone H3 1-10; K4me3)  Kd (ING2 189-262 M219A (Arabidopsis thaliana, UniProt B3H615); ITC; peptide): 23.4 ± 3.6 µM
B3 (CFH domains 1108-1231 L1189F)  Kd (C3 996-1303 (Homo sapiens, UniProt P01024); SPR): 6.3 ± 0.7 µM
Diaph1 (Mus musculus, UniProt O08808)  Kd (ACTA1/Capza1/Capzb CP-capped barbed end filament, Alexa-488 label (Oryctolagus cuniculus/Mus musculus); CP detachment from filament, mf-TIRF; apparent, hyperbolic fit, ADP-Pi-actin, added: Pi 50 mM): 0.071 µM
KLLMIIHDRREFAKFEKEKMNAKWDTGNNPIYKSAVTTVVNPKYEGK (ITGB1 752-798 E779N (Homo sapiens, UniProt P05556-1); sequence looked up)  Kd (Tln1; NMR titration): 767 µM
KRRQKSMTDFYHSKR (CDKN1A residues 141-155 T145K; C-terminal amide)  Kd (PCNA (Homo sapiens, UniProt P12004); SPR; peptide): 0.098 µM
SCN2A fragment R1914A (Homo sapiens) (sequence not shown)  Kd (CALM1; fluorescence titration; pH 7.4, 22 °C, added: calcium): 0.298 µM
B4 (protein)  Kd (protein (Pseudomonas aeruginosa, UniProt A0A0H2ZKW0); SPR): 31.6 µM
B5 (DNAJB11 23-358)  Kd (HSPA5 28-654 K294F (Homo sapiens, UniProt P11021); MST): 17.8 ± 4.6 µM
ARTKQTARKS (histone H3 2-11 (UniProt P68431); K4me2; sequence looked up)  Kd (ING2 199-261 (Homo sapiens, UniProt Q9H160); ITC; peptide): 4.2 µM and 8.2 µM
CALLLSAPRR (GOT2 (Gallus gallus); fluorescein label)  Kd (HSPA9 mature A475W (Homo sapiens, UniProt P38646); FP; peptide): 36.3 µM
B6 (EFR3A 721-791)  Kd (PI4KA/TTC7A/FAM126A TTC7A/FAM126A; BLI): 0.00034 ± 0.00013 µM
B7 (Cacna1c 1647-1777)  Kd (Jph2 1-440 S165G (Mus musculus, UniProt Q9ET78); ITC): 6.55 µM
SCN2A fragment R1917A (Homo sapiens) (sequence not shown)  Kd (CALM1; fluorescence titration; pH 7.4, 22 °C, added: calcium): 0.0819 µM
FGF2, 125I label (UniProt P09038)  Kd (FGFR1 ectodomain (Homo sapiens); radioligand binding): 0.0018 µM
PRPRPRPRPRPRPRPRPRPRPRPRPRPRPRPRPRPRPRPR ((PR)20 20 repeats; TAMRA label N-terminal)  Kd (TNPO1 W460A/W730A (Homo sapiens, UniProt Q92973-2); fluorescence polarisation; peptide): 0.0388 ± 0.0051 µM
ESKDHQLLRYLLDKDEKDL (NCOA1 peptide; N-terminal 5-FAM)  Kd (PPARG 202-477 (Homo sapiens, UniProt P37231-2); FP; peptide): 20.6 µM
ENAH EVH1 domain (Homo sapiens)  Kd (FLNC peptide (Homo sapiens); BLI): > 150 µM
B8 (mglB)  Kd (mglA (Myxococcus xanthus, UniProt Q1DB04); ITC; 25 °C, one-site model, added: GTPγS 100 µM): < 0.31 µM
11-deoxycorticosterone  rate constant k-1 (CYP11B2 (human); substrate binding, stopped-flow global kinetic fitting; purified enzyme; 3-state conformational selection model, added: equimolar adrenodoxin): 1.38 ± 0.0822 s⁻¹
B9 (DTNB 422-535)  Kd (DMD 3365-3685 (Homo sapiens, UniProt P11532-1); ITC): 6.66 µM
ARTKQTARAS (H3C1 1-10 K9A)  Kd (T1, ATRX ADD domain 167-289 K251R/F284Y (Homo sapiens); ITC; peptide): 26.8 µM
Peginesatide  phosphorylation level (UT7/EPO; tyrosine phosphorylation, LC-MS/MS phosphoproteomics, GluC, refers to: TNFRSF19 tyrosine 378; 10 nM, 15 min, added: 10 U/mL EPO; baseline: vehicle): 2.5 fold
B10 (MDM4 23-210)  Kd (TP53 1-312 (UniProt P04637); ITC): 8.5 µM
B11 (JAZ10)  Kd (MYC3 5-242, Alexa Fluor 488 label (Arabidopsis thaliana, UniProt Q9FIP9); MST; 200 nM, labelled protein): 0.43 ± 0.38 µM
colistin  MIC (Pseudomonas aeruginosa; broth microdilution; clinical isolate RKI-No_321/16): 1 mg/L
B12 (CFH domains 1108-1231 S1191L)  Kd (C3 C3dg 955-1303 (Homo sapiens, UniProt P01024); SPR): 1.8 ± 0.2 µM
entB, ketone isostere salicyl on PCP (Escherichia coli, UniProt P0ADI4)  Kd (EntF holo, phosphopantetheine (Escherichia coli, UniProt P11454); SPR): 0.069 µM
B13 (SMARCD1 SWIFT domain)  Kd (FOS FLAG-tagged, NHS Red dye labeled (UniProt P01100); MST): 4.71 ± 1.5 µM
YSSDFLTPEFVKFSMDLTNTEI (NR4A2 30-51 (Homo sapiens, UniProt P43354); sequence looked up)  Kd (Ncoa1 260-369 (Mus musculus, UniProt P70365); NMR titration; peptide): 10.5 ± 3.6 µM
B14  Kd (MAP2K1 (Homo sapiens, UniProt Q02750); BLI): 0.986 ± 0.133 µM
B15 (PUX5 301-421 F395A)  Kd (CDC48A; ITC; 25 °C): 3.3 ± 0.2 µM
KLLMIIHDRREFAKFEKEKMNAKWDTQENPIYKSPVTTVVNPKYEGK (ITGB1 752-798 G778Q/A786P (Homo sapiens, UniProt P05556-1); sequence looked up)  Kd (Tln1; NMR titration): 135 µM
GSGASGTSKCCYSLPATT (designed peptide)  Kd (ERBB2 23-652 (Homo sapiens, UniProt P04626); ELISA; peptide): 1.7 ± 0.6 µM
